Measured values of several laboratories.
Each numbered part is a random draw from the data of one study; scales do not carry over between parts. “And” joins repeats or separate records; there may be more than shown. ± marks the error that the study gave.
Chain of UniProt P50750 (whole entry, looked up): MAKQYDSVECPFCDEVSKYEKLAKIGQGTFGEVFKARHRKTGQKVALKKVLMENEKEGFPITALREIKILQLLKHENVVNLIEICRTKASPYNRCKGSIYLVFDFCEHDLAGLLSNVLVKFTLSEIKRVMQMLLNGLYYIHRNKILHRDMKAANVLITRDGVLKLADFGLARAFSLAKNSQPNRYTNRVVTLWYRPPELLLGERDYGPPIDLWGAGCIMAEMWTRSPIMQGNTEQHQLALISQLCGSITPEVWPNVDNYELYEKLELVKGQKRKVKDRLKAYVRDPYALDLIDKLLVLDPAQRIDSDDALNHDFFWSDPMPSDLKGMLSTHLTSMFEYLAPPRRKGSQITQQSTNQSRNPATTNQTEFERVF
Chain of UniProt Q9Y5S2 (whole entry, looked up): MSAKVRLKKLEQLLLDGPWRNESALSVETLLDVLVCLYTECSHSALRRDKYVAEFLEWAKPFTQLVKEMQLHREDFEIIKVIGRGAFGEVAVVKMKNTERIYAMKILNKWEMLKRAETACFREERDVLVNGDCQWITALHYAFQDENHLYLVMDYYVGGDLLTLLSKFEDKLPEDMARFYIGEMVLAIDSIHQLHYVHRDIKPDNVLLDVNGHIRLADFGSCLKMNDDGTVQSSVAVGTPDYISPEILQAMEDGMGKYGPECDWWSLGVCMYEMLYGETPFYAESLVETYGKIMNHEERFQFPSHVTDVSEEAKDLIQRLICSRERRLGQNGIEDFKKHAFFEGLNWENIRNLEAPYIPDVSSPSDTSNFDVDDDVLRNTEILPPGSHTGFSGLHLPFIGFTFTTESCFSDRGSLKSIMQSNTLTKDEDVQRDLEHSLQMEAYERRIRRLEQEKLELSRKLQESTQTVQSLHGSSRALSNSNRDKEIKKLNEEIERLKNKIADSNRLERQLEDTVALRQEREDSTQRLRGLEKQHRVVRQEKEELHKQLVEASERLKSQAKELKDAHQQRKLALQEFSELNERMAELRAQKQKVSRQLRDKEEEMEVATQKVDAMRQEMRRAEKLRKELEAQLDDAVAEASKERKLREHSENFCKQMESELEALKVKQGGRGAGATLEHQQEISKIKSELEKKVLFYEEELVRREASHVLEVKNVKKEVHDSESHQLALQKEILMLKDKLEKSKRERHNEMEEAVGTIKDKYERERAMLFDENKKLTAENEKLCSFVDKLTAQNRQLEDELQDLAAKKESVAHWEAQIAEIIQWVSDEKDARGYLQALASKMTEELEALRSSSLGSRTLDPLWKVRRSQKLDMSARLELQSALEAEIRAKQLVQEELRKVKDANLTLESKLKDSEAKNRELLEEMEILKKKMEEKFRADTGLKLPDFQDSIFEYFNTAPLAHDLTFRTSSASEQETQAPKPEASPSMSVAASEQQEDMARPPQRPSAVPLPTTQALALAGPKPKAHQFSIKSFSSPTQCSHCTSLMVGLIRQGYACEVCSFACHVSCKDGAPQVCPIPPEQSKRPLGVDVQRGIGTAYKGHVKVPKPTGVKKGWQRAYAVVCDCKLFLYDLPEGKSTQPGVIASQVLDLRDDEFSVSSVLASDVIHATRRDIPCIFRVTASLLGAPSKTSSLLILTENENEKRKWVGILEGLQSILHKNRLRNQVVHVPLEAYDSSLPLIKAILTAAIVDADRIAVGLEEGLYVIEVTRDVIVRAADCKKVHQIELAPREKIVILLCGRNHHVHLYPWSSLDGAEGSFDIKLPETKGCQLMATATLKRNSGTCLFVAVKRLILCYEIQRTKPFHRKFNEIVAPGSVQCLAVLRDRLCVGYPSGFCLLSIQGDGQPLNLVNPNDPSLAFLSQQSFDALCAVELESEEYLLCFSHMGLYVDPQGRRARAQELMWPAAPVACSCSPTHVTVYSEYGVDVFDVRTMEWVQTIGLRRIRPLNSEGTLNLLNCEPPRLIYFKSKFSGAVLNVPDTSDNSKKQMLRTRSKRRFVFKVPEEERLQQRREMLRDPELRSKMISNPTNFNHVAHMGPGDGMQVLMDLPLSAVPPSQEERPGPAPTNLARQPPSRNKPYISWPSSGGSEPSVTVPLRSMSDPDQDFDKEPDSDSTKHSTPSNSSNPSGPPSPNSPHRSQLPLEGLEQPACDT
Chain of UniProt P31751 (whole entry, looked up): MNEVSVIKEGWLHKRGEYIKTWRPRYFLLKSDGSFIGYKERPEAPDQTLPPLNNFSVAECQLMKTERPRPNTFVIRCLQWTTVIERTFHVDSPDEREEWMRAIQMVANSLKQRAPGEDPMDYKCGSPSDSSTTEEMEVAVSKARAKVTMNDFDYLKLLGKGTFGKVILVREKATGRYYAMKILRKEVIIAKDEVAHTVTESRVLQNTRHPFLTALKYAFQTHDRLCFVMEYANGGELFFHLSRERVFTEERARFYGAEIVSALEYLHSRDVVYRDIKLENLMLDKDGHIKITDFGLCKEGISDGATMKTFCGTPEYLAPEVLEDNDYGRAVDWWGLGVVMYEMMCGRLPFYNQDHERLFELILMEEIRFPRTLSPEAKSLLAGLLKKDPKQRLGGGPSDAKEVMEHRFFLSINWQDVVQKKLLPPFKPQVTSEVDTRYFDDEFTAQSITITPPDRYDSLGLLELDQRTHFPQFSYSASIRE
Chain of UniProt Q96L34 (whole entry, looked up): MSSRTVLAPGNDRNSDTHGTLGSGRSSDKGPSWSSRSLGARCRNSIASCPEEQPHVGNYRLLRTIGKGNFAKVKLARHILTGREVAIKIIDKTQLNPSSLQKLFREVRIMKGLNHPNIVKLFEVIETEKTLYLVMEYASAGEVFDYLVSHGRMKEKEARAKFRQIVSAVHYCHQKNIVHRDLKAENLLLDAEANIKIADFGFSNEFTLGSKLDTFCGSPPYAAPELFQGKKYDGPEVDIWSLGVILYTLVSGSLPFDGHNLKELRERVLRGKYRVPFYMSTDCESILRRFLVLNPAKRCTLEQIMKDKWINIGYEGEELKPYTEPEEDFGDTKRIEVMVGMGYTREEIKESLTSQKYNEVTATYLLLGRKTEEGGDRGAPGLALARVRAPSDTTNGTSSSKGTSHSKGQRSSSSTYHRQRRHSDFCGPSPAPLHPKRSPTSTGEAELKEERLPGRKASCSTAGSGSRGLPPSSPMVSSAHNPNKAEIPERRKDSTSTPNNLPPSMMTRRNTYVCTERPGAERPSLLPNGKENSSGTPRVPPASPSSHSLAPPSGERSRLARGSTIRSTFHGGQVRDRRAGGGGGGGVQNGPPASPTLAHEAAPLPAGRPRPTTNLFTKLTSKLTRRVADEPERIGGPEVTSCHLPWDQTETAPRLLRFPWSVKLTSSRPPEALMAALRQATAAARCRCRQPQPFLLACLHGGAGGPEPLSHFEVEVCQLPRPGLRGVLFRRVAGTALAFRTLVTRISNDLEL
Chain of UniProt Q9H4B4 (whole entry, looked up): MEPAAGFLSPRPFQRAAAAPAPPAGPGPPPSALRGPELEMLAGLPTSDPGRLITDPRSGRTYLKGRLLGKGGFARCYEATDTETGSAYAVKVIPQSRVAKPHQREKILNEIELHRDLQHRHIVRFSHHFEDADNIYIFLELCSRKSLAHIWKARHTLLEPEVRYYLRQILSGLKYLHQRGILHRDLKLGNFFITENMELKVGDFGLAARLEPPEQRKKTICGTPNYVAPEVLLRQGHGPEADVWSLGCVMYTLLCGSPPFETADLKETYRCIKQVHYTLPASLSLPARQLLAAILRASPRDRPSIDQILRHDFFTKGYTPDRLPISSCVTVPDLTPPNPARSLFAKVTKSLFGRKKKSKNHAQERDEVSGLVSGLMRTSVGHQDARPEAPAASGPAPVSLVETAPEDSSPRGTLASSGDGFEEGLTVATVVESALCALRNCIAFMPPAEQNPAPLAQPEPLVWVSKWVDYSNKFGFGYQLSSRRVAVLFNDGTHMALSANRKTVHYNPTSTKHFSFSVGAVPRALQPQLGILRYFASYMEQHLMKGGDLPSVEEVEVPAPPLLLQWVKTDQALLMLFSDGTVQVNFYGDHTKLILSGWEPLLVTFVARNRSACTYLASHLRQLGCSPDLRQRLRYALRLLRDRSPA
Chain of UniProt P06493 (whole entry, looked up): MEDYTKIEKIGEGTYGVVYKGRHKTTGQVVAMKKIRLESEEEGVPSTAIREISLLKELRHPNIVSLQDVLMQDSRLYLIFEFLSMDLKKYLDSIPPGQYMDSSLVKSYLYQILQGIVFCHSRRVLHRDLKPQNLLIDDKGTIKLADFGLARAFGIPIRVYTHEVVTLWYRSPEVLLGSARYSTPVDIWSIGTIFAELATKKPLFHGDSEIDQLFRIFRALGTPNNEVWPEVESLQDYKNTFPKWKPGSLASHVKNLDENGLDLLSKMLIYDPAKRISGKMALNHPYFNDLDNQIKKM
Chain of UniProt Q15759 (whole entry, looked up): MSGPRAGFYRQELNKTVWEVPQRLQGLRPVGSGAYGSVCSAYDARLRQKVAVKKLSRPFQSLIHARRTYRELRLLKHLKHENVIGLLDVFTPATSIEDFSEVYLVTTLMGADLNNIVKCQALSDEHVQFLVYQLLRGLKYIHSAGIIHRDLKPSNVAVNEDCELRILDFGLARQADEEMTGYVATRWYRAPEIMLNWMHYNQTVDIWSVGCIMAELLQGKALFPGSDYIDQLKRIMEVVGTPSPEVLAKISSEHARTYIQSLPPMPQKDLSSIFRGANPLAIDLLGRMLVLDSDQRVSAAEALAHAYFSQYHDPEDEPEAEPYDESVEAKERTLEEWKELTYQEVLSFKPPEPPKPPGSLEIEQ
Chain of UniProt Q6P2M8 (whole entry, looked up): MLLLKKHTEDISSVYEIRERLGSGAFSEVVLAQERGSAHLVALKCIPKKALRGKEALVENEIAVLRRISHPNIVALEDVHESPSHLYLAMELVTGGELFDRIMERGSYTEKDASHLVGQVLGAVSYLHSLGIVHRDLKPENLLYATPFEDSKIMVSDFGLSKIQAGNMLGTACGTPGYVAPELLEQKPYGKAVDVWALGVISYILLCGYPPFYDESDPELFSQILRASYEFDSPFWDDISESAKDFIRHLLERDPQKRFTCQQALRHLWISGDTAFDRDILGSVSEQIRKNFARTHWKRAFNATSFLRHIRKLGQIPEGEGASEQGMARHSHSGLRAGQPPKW

Series 1 — cell line: normal organoid sample H; method: CellTiter-Glo; host: human; sample: normal-adjacent epithelium; concentration: 1 µM; reference: DMSO
Structure (SMILES) | viability
Cc1cnc(-c2cc(Cl)ccc2F)cc1-n1c(=O)n(CC(N)=O)c2cnccc21 | 102% and 104%
Cn1nc(C(F)(F)F)cc1-c1cnc(N2CCc3cc(S(=O)(=O)Nc4c(F)cc(Cl)cc4F)cc(N4CCCC4=O)c32)nc1 | 97.8%
O=C(NC[C@@H]1[C@H]2CN(C(=O)OCc3cc(C(F)(F)F)cc(C(F)(F)F)c3)C[C@@H]12)c1ccc2[nH]nnc2c1 | 97.7%
CO[C@@H](C)c1c(Nc2ccc([C@@H](N(C)C(=O)C3CCS(=O)(=O)CC3)C(F)(F)F)cc2)cnc2cc(Cl)nn12 | 130% and 88.5%
Cc1cc(-n2nc(Cc3cc(F)cc(C(F)(F)F)c3)nc2C)ccc1C(N)=O | 103%
O=C(NS(=O)(=O)c1ccc(NCC2CCOCC2)c([N+](=O)[O-])c1)c1ccc(N2CCN(Cc3ccc(C(F)(F)F)cc3-c3ccc(Cl)cc3)CC2)cc1Oc1cnc2[nH]ccc2c1 | 98.1% and 110%
O=C(Nc1cnc(Oc2ccc(F)cc2)nc1)N1CCc2ncccc2[C@@H]1c1ccc(F)cc1 | 108% and 125%
CO[C@H]1CC[C@H](CNc2ccc(S(=O)(=O)NC(=O)c3ccc(N4CCN(CC5=C(c6ccc(Cl)cc6)CC(C)(C)CC5)CC4)cc3Oc3cnc4[nH]ccc4c3)cc2[N+](=O)[O-])CC1 | 104% and 111%

Series 2 — observed: enzyme activity; action: inhibitor; concentration: 0.5 µM; reference: control
SMILES: CSc1nc(-c2ccnc(N[C@@H](C)c3ccccc3)c2)c(-c2ccc(F)cc2)[nH]1 (racemic)
target | remaining activity
MARK4 (Homo sapiens, UniProt Q96L34) | 74.6%
RPS6KA4 (Homo sapiens, UniProt O75676) | 96.5%
MAPK11 (Homo sapiens, UniProt Q15759) | 41.6%
TLK2 (Homo sapiens, UniProt Q86UE8) | 106%
NEK3 (Homo sapiens, UniProt P51956) | 94.7%
MET (Homo sapiens, UniProt P08581) | 116%
DCLK2 (Homo sapiens, UniProt Q8N568) | 92.7%
CDC42BPB (Homo sapiens, UniProt Q9Y5S2) | 98.8%
AKT2 (Homo sapiens, UniProt P31751) | 96.8%
Cyclin-dependent kinase 9, with cyclin K (CDK9, Homo sapiens, UniProt P50750) | 91.1%
PLK3 (Homo sapiens, UniProt Q9H4B4) | 99.7%
Cyclin-dependent kinase 1, with cyclin A (CDK1, Homo sapiens, UniProt P06493) | 78%
PNCK (Homo sapiens, UniProt Q6P2M8) | 92.9%
ROCK1 (Homo sapiens, UniProt Q13464) | 91.7%

Series 3
Compound: COc1cc(C(=O)N2CCC(N3CCN(C)CC3)CC2)ccc1Nc1ncc2c(n1)N(C)c1ccccc1C(=O)N2C
target | test | setting | remaining activity [%]
NUAK1 (Homo sapiens, UniProt O60285) |  | 10 µM | 19 ± 5
CK2 | kinase activity | 10 µM | 80 ± 4
PAK6 | kinase activity | 1 µM | 94 ± 15
BRSK2 | kinase activity | 1 µM | 89 ± 7
RSK1 | kinase activity | 10 µM | 36 ± 47
PKBa | kinase activity | 10 µM | 81 ± 6
TAK1 | kinase activity | 10 µM | 82 ± 3

Other studies, line by line
SMILES | test | system | setting | scale | endpoint | result
CC(=O)N[C@@H](Cc1c[nH]c2ccccc12)C(=O)N[C@@H](CCC(=O)C=[N+]=[N-])C(=O)OC(C)C | UPLC-MS/MS | EL4 tumor, C57BL/6 CES1-/- mice, tumor | subcutaneous, 0.3 mg/kg DON equivalent daily, 5 days | higher = more metabolite | serine level | 8.3e+08 a.u. and 9.2e+08 a.u. and 7.36e+08 a.u. and 9.41e+08 a.u. and 8.47e+08 a.u. and 6.39e+08 a.u.

A few entries again (series 2):
target | remaining activity
NEK3 (Homo sapiens, UniProt P51956) | 94.7%
MET (Homo sapiens, UniProt P08581) | 116%
DCLK2 (Homo sapiens, UniProt Q8N568) | 92.7%
CDC42BPB (Homo sapiens, UniProt Q9Y5S2) | 98.8%
